Assay results gathered from unrelated publications.
Compare with care: the assays were run in different laboratories. Numbers after ± are the reported error.
Cell line: HCT-116

SMILES	read-out	method	time	IC50
COc1ccc(/C=N/NC(=O)c2ccc(-c3cc(OC)c(OC)c(OC)c3)nc2C)cc1OC	cell growth or viability	MTT		6.45 µM
COc1ccc(-n2c(SCC(=O)NNC(=O)Nc3ccccc3)nc3ccccc3c2=O)cc1				4.42 ± 0.2 µM
N=c1oc2ccccc2cc1C(=O)Nc1nnc(NC(=O)c2ccccc2)s1	cell growth or viability	MTT	48 h	15.8 µM
COc1c(-c2ccc(O)c(O)c2)oc2cc(O)cc(O)c2c1=O	cell growth or viability	MTT	48 h	34 mg/L
CC(=O)OCCSc1nc2c3cnn(C(=O)CNc4ccc(C)cc4)c3ncn2n1	cell growth or viability	MTT	48 h	0.009 µM
CN1CCC2(CC1)C/C(=N\N=C\c1ccc(N(C)C)cc1)c1ccccc1O2			48 h	31 ± 1.32 µM
CC(=O)OCC(CSc1nc2c3cnn(C(=O)CNc4ccc(F)cc4)c3ncn2n1)OC(C)=O (stereo not drawn)	cell growth or viability	MTT	48 h	0.007 µM
O=C(CSc1nc2ccccc2c(=O)n1-c1ccc(Cl)cc1)NNC(=O)Nc1ccc(Cl)cc1				35 ± 2.2 µM
O=c1[nH]c2ccccc2nc1/C=C/c1ccc2ccccc2c1	cell growth or viability	MTT	72 h	17.9 µM
CCN1CCC2(CC1)C/C(=N\N=C\c1ccc(N(C)C)cc1)c1ccccc1O2			48 h	56.2 ± 2.39 µM
Cc1ccc(NCC(=O)n2ncc3c(=N)n(N)cnc32)cc1	cell growth or viability	MTT	48 h	0.51 µM
Cc1ccc(-c2cc(-c3c(Cl)cccc3Cl)c3c(=O)n(C)c(=O)n(C)c3n2)cc1	cell growth or viability	MTT	48 h	< 5 µM
COc1ccc(-n2c(SCC(=O)NNC(=O)Nc3ccc(C(F)(F)F)cc3Cl)nc3ccccc3c2=O)cc1				85.2 ± 4.5 µM
O=C(Nc1nnc(NC(=O)c2cc3ccccc3oc2=O)s1)c1ccccc1	cell growth or viability	MTT	48 h	47.2 µM
O=C(/C=C/c1ccc(F)cc1)c1nc2ccccc2n1Cc1cn([C@@H]2O[C@H](CO)[C@H](O)[C@H](O)[C@H]2O)nn1	cell growth or viability	LDH	48 h	5.3 µM
COc1ccc(-n2c(SCC(=O)NNC(=O)Nc3c(C)cccc3C)nc3ccccc3c2=O)cc1				> 100 µM
N#CC(=Cc1cccs1)C(=O)Nc1nnc(NC(=O)c2ccccc2)s1	cell growth or viability	MTT	48 h	34.1 µM
Cc1ccc(-n2c(SCC(=O)NNC(=O)Nc3ccc(Cl)cc3)nc3ccccc3c2=O)cc1				7.83 ± 0.6 µM
N#CC(C(=O)Nc1nnc(NC(=O)c2ccccc2)s1)=C1Nc2ccccc2O1	cell growth or viability	MTT	48 h	< 10 µM
Oc1c(Cl)cc(Cl)c(Cl)c1Cc1c(O)c(Cl)cc(Cl)c1Cl	cell growth or viability		48 h	~6 µM
Cn1c(=O)c(/C=C/c2ccccc2)nc2ccccc21	cell growth or viability	MTT	72 h	7.04 µM
COc1cc(-c2ccc(C(=O)N/N=C/c3cc(C)ccc3C)c(C)n2)cc(OC)c1OC	cell growth or viability	MTT		5.2 µM
CC1(C)CC[C@]2(C(=O)O)CC[C@]3(C)C(=CC[C@@H]4[C@@]5(C)CC[C@H](O)C(C)(C)[C@@H]5CC[C@]43C)[C@@H]2C1	cell growth or viability	resazurin	96 h	2.33 mg/L

SMILES	read-out	method	time	IC50
Cc1ccc(C(C)C)cc1.Cc1ccc(C(C)C)cc1.[Cl][Ru][Cl].[Cl][Ru][Cl]	cell growth or viability	trypan blue	48 h	73.7 µM
COc1ccccc1/C=N/NC(=O)c1ccc(-c2cc(OC)c(OC)c(OC)c2)nc1C	cell growth or viability	MTT		7.19 µM
Cc1ccc(NCC(=O)n2ncc3c2ncn2nc(SCC#N)nc32)cc1	cell growth or viability	MTT	48 h	0.073 µM
COc1cc(-c2ccc(C(=O)N/N=C/c3ccc(Cl)cc3)c(C)n2)cc(OC)c1OC	cell growth or viability	MTT		16.7 µM
N#CC(C(=O)Nc1nnc(NC(=O)c2ccccc2)s1)=C1SC(=O)CN1c1ccccc1	cell growth or viability	MTT	48 h	91.3 µM
COc1ccc(-n2c(SCC(=O)NNC(=O)Nc3ccc(Cl)cc3)nc3ccccc3c2=O)cc1				64.3 ± 3.5 µM
O=c1[nH]c2ccccc2nc1/C=C/c1ccc(F)cc1	cell growth or viability	MTT	72 h	21.3 µM
N#CC(C(=O)Nc1nnc(NC(=O)c2ccccc2)s1)=C1SCCN1c1ccccc1	cell growth or viability	MTT	48 h	40.2 µM
CCCCCCSc1nnc(-c2ccc(-c3cc(OC)c(OC)c(OC)c3)nc2C)o1	cell growth or viability	MTT		15.3 µM
N#CC(=Cc1ccc(Cl)cc1Cl)C(=O)Nc1nnc(NC(=O)c2ccccc2)s1	cell growth or viability	MTT	48 h	3.97 µM
Cc1ccc(-n2c(SCC(=O)NNC(=O)NCc3ccccc3)nc3ccccc3c2=O)cc1				6.72 ± 0.3 µM
O=c1[nH]c2ccccc2nc1/C=C/c1ccc(C(F)(F)F)cc1	cell growth or viability	MTT	72 h	> 50 µM
N=c1c2cnn(C(=O)CNc3ccc(F)cc3)c2ncn1N	cell growth or viability	MTT	48 h	0.521 µM
Fc1ccccc1/C=C/c1nc2ccccc2nc1Cl	cell growth or viability	MTT	72 h	18.3 µM
N#CC(=Cc1ccco1)C(=O)Nc1nnc(NC(=O)c2ccccc2)s1	cell growth or viability	MTT	48 h	52.6 µM
O=c1[nH]c2ccccc2nc1/C=C/c1ccccc1	cell growth or viability	MTT	72 h	12.3 µM
COc1ccc(NC(=O)NNC(=O)CSc2nc3ccccc3c(=O)n2-c2ccc(C)cc2)cc1				74.6 ± 4.1 µM
CCCCNNC(=O)c1ccc(Br)cc1	cell growth or viability	ATP luminescence	96 h	11.2 µM
O=c1[nH]c2ccccc2nc1/C=C/c1ccccc1Cl	cell growth or viability	MTT	72 h	7.17 µM
COc1cc(O)c2c(c1)O[C@H](c1ccc(O)c(O)c1)[C@@H](O)C2=O	cell growth or viability	MTT	48 h	34 mg/L
Cn1c(=O)c(/C=C/c2ccc(F)cc2)nc2ccccc21	cell growth or viability	MTT	72 h	5.28 µM
O=C(CNc1ccc(F)cc1)n1ncc2c1ncn1nc(SCC(O)CO)nc21 (stereo not drawn)	cell growth or viability	MTT	48 h	0.664 µM

A few entries again:
SMILES	read-out	method	time	IC50
N=c1c2cnn(C(=O)CNc3ccc(F)cc3)c2ncn1N	cell growth or viability	MTT	48 h	0.521 µM
Fc1ccccc1/C=C/c1nc2ccccc2nc1Cl	cell growth or viability	MTT	72 h	18.3 µM
CC(=O)OCC(CSc1nc2c3cnn(C(=O)CNc4ccc(F)cc4)c3ncn2n1)OC(C)=O (stereo not drawn)	cell growth or viability	MTT	48 h	0.007 µM
O=C(Nc1nnc(NC(=O)c2cc3ccccc3oc2=O)s1)c1ccccc1	cell growth or viability	MTT	48 h	47.2 µM
